Published values pooled from the literature.
Each numbered part is a random draw from the data of one study; scales do not carry over between parts.

Sample 1 — method: protein binding microarray; form: double-stranded DNA, one strand shown; sample: in vitro; tested at: not given; reference: not given; direction: higher = stronger binding
Target: Histone acetyltransferase KAT6A, both winged helices, GST fusion (KAT6A, Homo sapiens, UniProt Q92794, residues 1-181)
Setting: 8-mer, flanks averaged, mean of 2 arrays, mostly near background
Residues (chain): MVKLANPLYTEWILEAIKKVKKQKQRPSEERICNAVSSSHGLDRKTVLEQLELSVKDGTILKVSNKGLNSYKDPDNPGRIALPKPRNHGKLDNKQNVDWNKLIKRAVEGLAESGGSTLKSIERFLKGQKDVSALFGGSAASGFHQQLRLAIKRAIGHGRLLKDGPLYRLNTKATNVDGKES
`ACGTGATC` gave an E-score of 0.0415.
The E-score of `AATCCCGA` is reported as 0.114.
With `AAACCGGC` the E-score was 0.26.
The E-score of `GGCACTGA` is reported as 0.00968.
`AAGAGCTG` gave an E-score of -0.18.

Sample 2 — method: protein-binding microarray; form: double-stranded DNA, one strand shown; sample: in vitro; tested at: not given; direction: higher = stronger binding
Target: Hepatocyte nuclear factor 3-beta, forkhead domain (FOXA2, Homo sapiens, UniProt Q9Y261, residues 142-269)
Setting: k-mer, scored over probes, only values ≥0.25
Construct (chain): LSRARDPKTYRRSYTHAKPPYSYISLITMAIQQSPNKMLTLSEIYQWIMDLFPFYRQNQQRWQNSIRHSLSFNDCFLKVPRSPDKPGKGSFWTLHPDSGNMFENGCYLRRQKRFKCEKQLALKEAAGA
For `CTATTTGA`, the E-score was 0.29.
`TAATGTGA` has an E-score of 0.352.
`ACATCACA` has an E-score of 0.265.
`ATAATCTA` gave an E-score of 0.292.
`CAATACTC` has an E-score of 0.312.

Sample 3 — method: RNA Bind-n-Seq; form: RNA; sample: in vitro; tested at: 20 nM; setting: 6-mer, flanks averaged, single round; together with: 150 mM KCl; reference: input library; direction: higher = stronger binding
Target: TAR DNA-binding protein 43, full length, His tag (TARDBP, Homo sapiens, UniProt Q13148, residues 1-414)
For `CAAUCC`, “6-mer enrichment (R)” read 0.574.
For `AAUCCA`, “6-mer enrichment (R)” read 0.589.
`CGUCGC` — result for “6-mer enrichment (R)”: 0.852.
`UUAGGA`: “6-mer enrichment (R)” 0.759.

Further values, each from its own experiment
`PhoQ, residues 284 288 289 292 302 303 TNASYF` gave a fold induction of 1.44 (PhoP, residues 12 14 15 18 19 NQAHL (Escherichia coli, UniProt P23836); Sort-seq, item: YFP reporter; E. coli; PhoQ-PhoP variant library, together with: 10 µM Mg2+; reference: high Mg2+ state, higher = stronger signaling).

For quick reference, copied from above (sample 2):
`ACATCACA` has an E-score of 0.265.
`ATAATCTA` gave an E-score of 0.292.
